Published values from different studies.
A part holds a random share of what one study measured. Substitutions count along the parent as printed.

Study 1 — method: RNA Bind-n-Seq; form: RNA; matrix: in vitro; concentration: 365 nM; relative to: no-protein control; direction: higher = stronger binding; quantity: RBNS enrichment (R)
Target: RNA binding protein fox-1 homolog 2, RRM domain, GST-SBP tag (RBFOX2, Homo sapiens, UniProt O43251-10, residues 100-194)
Notes: natural RNA segment, single round, ends assumed
Construct (chain): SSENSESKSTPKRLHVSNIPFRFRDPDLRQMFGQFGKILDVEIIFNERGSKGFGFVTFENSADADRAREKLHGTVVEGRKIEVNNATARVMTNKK
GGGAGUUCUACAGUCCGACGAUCCCUGUCUCCAAAGGACCGGCUCUCCAUGGCUCCUGCGCCUCGUGCUUUCCGCGUACAGAAGUGCUUGCCCGGGGAGUCCCGCCUGACCUGCCUUCAUGUGGACCCUUAGAUGGAAUUCUCGGGUGCCAA: 0.325
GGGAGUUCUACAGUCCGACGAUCACUCUCAGGUCCCCCACUUAGUCAGGCCUGAGCUAAUUUAUUUGAGCGCAGAGUGUAAAAUUUUAAUUCAAAAUGGUGGCUAUACUCACUACACAUAAAUCUCAUAAUCUUGGAAUUCUCGGGUGCCAA: 0.387
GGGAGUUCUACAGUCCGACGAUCUCCAACCAAUCAGUGCUGUCAACGGGCUGCCAUAGCUCCUUCGAUGGCAAAUAGGAUGUGUGCCCAAAGAAUUAAAGCGAUGAGUGGCUGGUGAAGCGCUCUCUGUCCUGUGGAAUUCUCGGGUGCCAA: 0.487
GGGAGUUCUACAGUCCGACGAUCACAGAUGGAGCUCCUUCCUAGCUAGGGAGACCUUAUGAGAAGUGGAUGGUAGGAGGAGUCACUAAUGUUUCAAUCUCUAUUUCUGUAAUCUUGGGCAAUAAUGCAUAGGAUGGAAUUCUCGGGUGCCAA: 0.457
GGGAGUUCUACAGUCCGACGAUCAUUAUUUAUAAAUUCCACCCAAAGUGGACAGAGUCAGGUGCCAGACCUGAUCUGAAGUGCACCAAGGAAGUAUCUGGUGGUUCUCCUGAGAUGGGGGCCUUGCAGCCCAGUGGAAUUCUCGGGUGCCAA: 0.618
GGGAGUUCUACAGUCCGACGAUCAGUCAGAAAAACCAGAGCGACUGUUAAGGGCUUUGGCCAGCUUUCUAGGCAGCGAGUGCAGGUGACAACGGUGGUCUAGGGAGAGUUACUGGUAUGGAACACAGACAUGGUGGAAUUCUCGGGUGCCAA: 0.638
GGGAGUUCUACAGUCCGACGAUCCUUAUCAUCUGCCCUAUCUUGCCCCUUCCUGUGGAGUGGGCAGAAGGGCUCCCGGGAUCCUCAGAGCUCCCAGGUCUGAGCAGCCAAAGGCCCAGCUGGGCCUCCAGGACUGGAAUUCUCGGGUGCCAA: 0.225
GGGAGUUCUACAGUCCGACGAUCCCUAGUUUUGUAUUUUGUCCUGUGACUGCCAUGCGUUCCACCAGAAAGCCGCUCUAUUUUGGUCUCUGUGAUAUUUUAAAUGCGUGACAGAAGCAAGCAAAUAAAGUCAGUGGAAUUCUCGGGUGCCAA: 0.491
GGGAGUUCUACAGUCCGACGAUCCGAGUUUGAGGCAGUCUUGCAAGAUUCUCAGACUAAUUUCCAAAAGGAAACCGGAUGCCAACUUCCCACGGGUUUACUGUGCCUCUGGCAUCCAGGGUCUUCAGUUUCCCUGGAAUUCUCGGGUGCCAA: 0.239

Study 2 — target: CCND2, cyclin fold, Cln2 fusion (human); method: yeast growth competition, sequencing; matrix: yeast; notes: weak parent motif; relative to: not given; direction: higher = stronger binding; quantity: normalised enrichment score
Parent: MICAL3 docking peptide (human); LQLRRQLSFSEDS
S10T: 0.151
L7F: -0.212
S8L: 0.166
E11S: 0.0683
E11V: 0.00159
R4D: 0.127
D12H: 0.0486
Q2C: 0.462
F9K: 0.0406
S8K: 0.361
L3K: 0.0233
E11M: -0.221
E11L: 0.387
Q2S: 0.312
R5C: 0.117
S10W: 0.0593
S8H: 0.641
F9V: 0.0201
R5D: 0.169
R5A: 0.208
S8T: 0.167
L3C: 0.638
F9I: -0.0605
D12I: 0.121
D12G: 0.0337

Study 3 — method: RNA Bind-n-Seq; form: RNA; matrix: in vitro; concentration: 200 nM; notes: whole 134-nt RNA, ends assumed; with: 150 mM LiCl; relative to: input library; direction: higher = stronger binding; quantity: log2 enrichment; each molecule: 7-deaza-guanosine replaces G
Target: Ras GTPase-activating protein-binding protein 1, full length (G3BP1, Homo sapiens, UniProt Q13283)
UniProt Q13283, sequence (whole entry, looked up): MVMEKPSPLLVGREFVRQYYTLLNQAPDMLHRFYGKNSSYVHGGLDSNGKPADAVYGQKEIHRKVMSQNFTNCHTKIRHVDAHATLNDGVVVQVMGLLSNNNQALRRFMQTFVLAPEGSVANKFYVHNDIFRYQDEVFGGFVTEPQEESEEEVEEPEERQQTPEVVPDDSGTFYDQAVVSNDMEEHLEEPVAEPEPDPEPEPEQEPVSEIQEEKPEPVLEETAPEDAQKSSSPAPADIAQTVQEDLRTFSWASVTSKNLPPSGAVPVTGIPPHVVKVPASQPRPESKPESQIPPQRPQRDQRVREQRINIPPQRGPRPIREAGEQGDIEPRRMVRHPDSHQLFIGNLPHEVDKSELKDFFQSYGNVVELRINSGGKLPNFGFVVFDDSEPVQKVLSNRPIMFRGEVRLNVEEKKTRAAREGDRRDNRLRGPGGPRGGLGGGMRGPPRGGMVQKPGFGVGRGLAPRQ
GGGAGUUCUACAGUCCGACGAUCGUCCUGUGCUACACAUCGUAUGUACCGAAUCGGGCCCCCGGGGCCCCCGGCCCCCGGGAAAGUAUUAUGUUACGCCGUUCGGAUCUGCACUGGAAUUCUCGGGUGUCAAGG: -1.5
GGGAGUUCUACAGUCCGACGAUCUCAAGUCCUGUGCUACACAUCGUAUGUACCGAAUCGGGGUUGGGGUUGGGGUUGGAAAGUAUUAUGUUACGCCGUUCGGAUCUGCACUUCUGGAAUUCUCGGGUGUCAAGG: -0.65
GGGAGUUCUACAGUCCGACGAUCCCUGUGCUACACAUCGUAUGUACCGAAUCGGGGUUUUUGGGGUUUUUGGGGAAAAAGGGGAAAGUAUUAUGUUACGCCGUUCGGAUCUGCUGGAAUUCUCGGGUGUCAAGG: 0.586
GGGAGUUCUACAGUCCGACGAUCCCUCAAGUCCUGUGCUACACAUCGUAUGUACCGAAUCGGGCGGGCGGGGCGGAAAGUAUUAUGUUACGCCGUUCGGAUCUGCACUUCCAGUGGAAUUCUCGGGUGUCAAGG: 0.102
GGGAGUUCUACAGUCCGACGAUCAGUCCUGUGCUACACAUCGUAUGUACCGAAUCGGGGAGGGGUUUUUGGGGUUUGGGGAAAGUAUUAUGUUACGCCGUUCGGAUCUGCACUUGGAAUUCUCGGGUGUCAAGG: -0.279
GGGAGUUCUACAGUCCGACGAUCGCAGGAAGUAAAAACAAAUGGAAAUGCUUCGGAAAAUGGCAGGGGUGGGGGUUGCUAAGGAAAGGGUGGGAUGGGAGUGGGUAAAGAGUUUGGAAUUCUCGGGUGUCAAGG: -0.0787
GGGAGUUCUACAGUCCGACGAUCUGGCCCUGGUGGCAUGCGGGGAGGAAGAGGUGGCCUCAUGGAUCGUGGUGGUCCCGGUGAAAUGUUCAGAGGUGGCCGUGGUGGAGACAGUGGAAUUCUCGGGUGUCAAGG: 0.0119
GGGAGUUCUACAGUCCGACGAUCCUCAAGUCCUGUGCUACACAUCGUAUGUACCGAAUCGGUGGUUUUUUUGGAGGAAAGUAUUAUGUUACGCCGUUCGGAUCUGCACUUCCAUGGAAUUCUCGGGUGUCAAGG: 0.987
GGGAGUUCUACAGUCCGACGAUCGUCAAGAAAGAUCUUAAGACUGGUCAUUCAAAGGGGUUUGGCUUUGUUCGUUUUACGGAAUAUGAAACACAAGUGAAAGUAAUGUCACAGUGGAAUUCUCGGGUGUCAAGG: -1.93
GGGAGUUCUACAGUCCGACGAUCUAACUUUAGAGGAGGAUCUGAUGGAUAUGGCAGUGGACGUGGAUUUGGGGAUGGCUAUAAUUGGUAUGGAGGAGGACCUGGAGGUGGCAAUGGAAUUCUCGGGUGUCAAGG: 0.26
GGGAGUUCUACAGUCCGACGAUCAAGUCCUGUGCUACACAUCGUAUGUACCGAAUCGGUUUGGAAAAAGGAAAAAAAGGAAAGUAUUAUGUUACGCCGUUCGGAUCUGCACUUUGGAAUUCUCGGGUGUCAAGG: -0.713

Study 4 — method: protein binding microarray; form: double-stranded DNA, one strand shown; matrix: in vitro; concentration: not given; relative to: not given; direction: higher = stronger binding; quantity: E-score
Target: Histone acetyltransferase KAT6A, winged helix 1, GST fusion (KAT6A, Homo sapiens, UniProt Q92794, residues 1-85)
Notes: 8-mer, flanks averaged, mean of 2 arrays, mostly near background
Construct (chain): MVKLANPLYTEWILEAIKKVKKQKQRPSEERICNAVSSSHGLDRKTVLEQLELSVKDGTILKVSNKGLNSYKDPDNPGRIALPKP
GATATCAC: -0.106
CAACCCTG: -0.0634
AGTAGTCG: -0.0229
CTATAGTA: -0.00856
AATTAGTC: -0.0282
GCGTTTCA: 0.204
ATGCAATA: -0.244
ACCCGCGT: 0.358
ACCGTGGC: 0.0425
CCCCCTAC: -0.0775
ATGTGTCA: -0.217
TTACGAAA: -0.173
AAACTTGC: 0.0226
GGTAGAAA: 0.0652
ATGTTACG: 0.0561
ATTATAAG: -0.125
TAAGCACA: 0.0855
CCTGTTAG: -0.171
CCCTAAAG: -0.026
GAGCCCAC: -0.0724
CTGCGTCA: 0.0643
ACAACGGC: 0.317
CAAGCAAA: -0.33

Some of these lines once more (study 2):
Q2C: 0.462
S8T: 0.167
L7F: -0.212
S10W: 0.0593
